Published values collected from several papers.
Compare with care: the assays were run in different laboratories. Several values in a cell are separate wells, animals, samples, runs or records. ± gives the spread as reported.

The growth inhibition of `COc1cccc2c1C(=O)c1c(O)c3c(c(O)c1C2=O)C[C@@](O)(C(=O)CO)C[C@@H]3O[C@H]1C[C@H](N)[C@H](O)[C@H](C)O1` is reported as 15.4 ± 1.91% (Vero; MTT; 100 µM, 48 h).
The calcium response of `CSCC[C@H](NC(=O)[C@H](Cc1ccc(OS(=O)(=O)O)cc1)NC(=O)[C@@H](N)CC(=O)O)C(=O)NCC(=O)N[C@@H](Cc1c[nH]c2ccccc12)C(=O)N[C@@H](CCSC)C(=O)N[C@@H](CC(=O)O)C(=O)N[C@@H](Cc1ccccc1)C(N)=O` is reported as 0.099 a.u. and 0.0777 a.u. (HEK293T control virus; agonist, calcium mobilization; 3.2 nM, no receptor expressed; higher = more calcium release).
The cytotoxicity of `O=S(=O)(NNc1nnc(Cl)c2ccccc12)c1ccc(F)cc1` is reported as 97.6% (Vero; MTT; 1000 µg/mL).
The cytotoxicity of `Cn1cnc2c1c(=O)n(CC(=O)Nc1c(Cl)cccc1Cl)c(=O)n2C` is reported as 0.256% (Vero; MTT; 31.25 µg/mL).
`O=C(C[C@@H](C(F)F)n1ccc(F)n1)N1CCC(O)(Cn2cnc3c(cnn3-c3ccc(F)cc3)c2=O)CC1`: “G2/M phase cells” 13.6% (CHP-212 parental; PI flow cytometry; 0.1 µM, 24 h).
`CCn1cc(-c2cc(Cn3ccoc3=N)cc3c2CCN([C@@H](C)c2cc(OC)ccn2)C3=O)c(C(F)(F)F)n1` has an EC50 of 4.7 µM (KLM1; cell growth, inhibitor; 120 h).
The GI50 of `O=C(/C=C/C=C/C=C/C1CCCCC1)NC1=C[C@@](O)(/C=C/C=C/C=C/C(=O)NC2=C(O)CCC2=O)[C@@H]2O[C@@H]2C1=O` is reported as 24.8 µM (hmc18; cell growth, inhibitor, CellTiter-Glo luminescence; 78 h; relative to: day 0 cell count).
`O=P1(C2CCCCC2)CCCCC1` gave a necrotic cells of 1.95% (SW480; annexin V/PI flow cytometry; IC50, 72 h).
For `COc1cc2ncnc(Nc3ccc(Oc4ccccc4)cc3C)c2cc1OC.O=C(O)C(F)(F)F`, “average fractional effect” read 14% (MeWo (NF1); cell viability, resazurin; 1 µM, 72 h, added: trametinib 0 nM).
Under “log2 fold change”, `Cn1cc(-c2ccc(-c3cncc(Cl)c3N3CCC4(CCNC4=O)CC3)cc2)cn1` is recorded as 3.33 (COLO 205; gene expression, microarray, refers to: IER5 mRNA; concentration not given, 2 h; relative to: untreated cells).
For `O=[N+]([O-])c1ccc(-c2ccc(/C=N/Nc3nc(N4CCCCC4)nc(N4CCCCC4)n3)o2)cc1`, the efficacy was 29% (LDR; silenced CMV-GFP reporter derepression, qHTS).
`COc1cc2ncnc(Nc3ccc(Oc4ccccc4)c(C)c3C)c2cc1OC.Cl`: “average fractional effect” 10% (MeWo (NF1); cell viability, resazurin; 1 µM, 72 h, added: trametinib).
`CC(C)NCC(O)c1ccc(O)c(O)c1` (stereo not drawn) has a sarcomere length of 1.8 µm (mouse ventricular cardiomyocytes; dose not given, 0.351 s).
With `CN(Cc1cnc2nc(N)nc(N)c2n1)c1ccc(C(=O)N[C@@H](CCC(=O)O)C(=O)O)cc1` the uptake was 12.4% (cells transfected with H247C mutant; 0.5 µM, 2 min, pH 5.5, 37 °C).
With `CCn1cc(-c2cc(Cn3ccnc3)cc3c2CCN([C@H](c2cc(OC)ccn2)C2CC2)C3=O)c(C(F)(F)F)n1` the EC50 was 0.773 µM (Panc 04.03; cell growth; 120 h).
Under PARP cleavage, `C=C1CC[C@@H]2[C@](C)(CCC[C@]2(C)C(=O)O)[C@H]1CC/C(C)=C/CO` is recorded as “increased” (neuroblastoma M2 (−); western blot; IC50; relative to: untreated).
`COc1cnc2cccc(N3CCc4c(cc(Cn5ccnc5C)cc4-c4cn(C)nc4C(F)(F)F)C3=O)c2c1` gave an EC50 of 4.4 µM (Pfeiffer; cell growth; 120 h).
`CCCN1CCN(c2ccc3[nH]c(-c4ccc5[nH]c(-c6ccc(OCC)c(OCC)c6)nc5c4)nc3c2)CC1` gave a growth percent of 20.9% (SR; SRB; 10 µM, 48 h).
`Cc1nc(N(Cc2ccccc2)c2ccc3c(c2)/C(=C/c2ccccc2)C(=O)N3Cc2ccccc2)c2ccccc2n1` (mixture of isomers): “wound healing rate” 14.1% (LLC; 2.0 µM, 24 h).
`CC(C)(C)c1nc(-c2cccc(NS(=O)(=O)c3c(F)cccc3F)c2F)c(-c2ccnc(N)n2)s1` has an IC75 of 0.731 µM (SK-MEL-239 C4 (p61 BRAF V600E); ERK phosphorylation, Western blot; 1 h).
Under “T cell proliferation”, `Nc1ncnc2c1ncn2[C@@H]1O[C@H](CO)[C@@H](O)[C@H]1O` is recorded as 41 a.u. and 54.1 a.u. and 40.3 a.u. (activated human T cells; 10 µM; higher = more proliferation).
The efficacy of `N#Cc1sc2nc(-c3ccccc3)cc(C(F)(F)F)c2c1N` is reported as 47% (LDR; silenced CMV-GFP reporter derepression, qHTS).
For `NS(=O)(=O)OC[C@@H]1C[C@@H](n2ccc3c(N[C@H]4CCc5ccccc54)ncnc32)C[C@@H]1O`, “increase in BRD4 level” read about 40% (HiBiT-BRD4 LgBiT cells; 0.1 µM, no PROTAC).
`c1ccc2[nH]ccc2c1` — result for “mRNA level, LS mean”: 56.7 counts per million (HCT-8; RNA-seq, refers to: ADM2; concentration not given).
For `Cc1cccc(-c2[nH]c(CNc3ccccc3F)nc2-c2ccc3ncnn3c2)n1`, “surface marker level” read 151% (RPMI-8226; flow cytometry, refers to: CD9; concentration not given; relative to: comparator compound alone).
`CSc1cc(Oc2ccnc3[nH]c(=O)cnc23)ccc1NC(=O)Nc1cc(C(C)(C)C)nn1-c1ccccc1` gave a phospho ratio of 0.42 (patient-derived cell line; RPPA, refers to: phosphorylated IRS-1; human; 1 µM, 4 h; relative to: DMSO).
With `S=C(Nc1ccccc1)c1ccccn1` the efficacy was 84% (LDR; silenced CMV-GFP reporter derepression, qHTS).
For `O=CC[C@H](O)[C@H](O)COP(=O)(O)O`, “log2 fold change” read -0.111 (binding, MIDAS equilibrium dialysis LC-MS; A2AR-BRIL thermostabilized; concentration not given; relative to: no-protein control).
For `Cc1cc(Nc2ncc(Cl)c(Nc3ccccc3S(=O)(=O)C(C)C)n2)c(OC(C)C)cc1C1CCNCC1`, “log2 fold change” read -1.62 (CLB-GE; phosphoproteomics LC-MS/MS, refers to: BOD1L phosphorylation; 200 nM, 60 min; relative to: untreated).
Under “log2 fold change”, `CC(C)CC(=O)NCC(=O)O` is recorded as -0.79 (binding, MIDAS equilibrium dialysis LC-MS; A2AR-BRIL thermostabilized; concentration not given; relative to: no-protein control).
For `COc1cc(/C=C/C(=O)N2CCC=CC2=O)cc(OC)c1OC`, the mRNA level was 61.4 ± 11% (MDA-MB-468; qRT-PCR, refers to: PTGIS; 30 µM, 6 h; relative to: time zero).
With `C=CC1=C(C)c2cc3[n-]c(cc4nc(cc5[n-]c(cc1n2)c(C)c5C=C)C(C)=C4CCC(=O)O)c(CCC(=O)O)c3C.[Zn+2]` the fold change was 2.78 (SH-SY5Y; RNA-seq, refers to: SPRY1 mRNA; 5 µM, 5 h; relative to: untreated cells).
Under EC50, `Cc1cc(C)c(/C=C2\SC(N3CCCCC3)=NC2=O)[nH]1` is recorded as “inactive” (NG108-cl; clomeleon fluorescence, refers to: intracellular chloride reduction; 5 h).
The protein level of `CC/C(=N\NC(=O)NCc1cccc(O)c1)c1ccc(O)c(C)c1O` is reported as 1.66 ± 0.88 (SK-OV-3; Western blot, refers to: TAZ; 10 µM, 6 h, 2D culture, unit not given; relative to: β-actin).
`CCCCCCCCCCCCCCCC(NCc1cccc(C)c1)=C1C(=O)OC(CO)C1=O` (stereo not drawn) — result for “G2/M phase cells”: 38.3% (G2-synchronized tsFT210 cells; flow cytometry; 50 µM, 4 h, 32 °C, release from G2 arrest).
The phospho-TBK1/TBK1 ratio of `CCc1ccc(NC(=O)Nc2c[nH]c3ccccc23)cc1` is reported as 0.671 and 0.854 (RAW-ISG; western blot; concentration not given, added: poly(I:C); relative to: vehicle).
For `Cl.Cl.NCCNS(=O)(=O)c1ccc(Cl)c2ccncc12`, “relative cell number” read 119% (SK-OV-3; ATP; 2D monolayer culture; 0.1 µM, 4 days; relative to: untreated).
With `Cc1nn(-c2nc3ccc(Cl)c(Cl)c3[nH]2)c(O)c1C1OC(=O)c2ccccc21` (stereo not drawn) the mRNA level was 0.697 (RAW-ISG; RT-qPCR, refers to: IFNB1; 10 µM, unit not given, added: poly(I:C); relative to: vehicle).
The cytotoxicity of `CCNc1nc(Nc2ccc(F)c(Cl)c2)c2ccccc2n1` is reported as 47.1% (Vero; MTT; 125 µg/mL).

Repeated from above:
`COc1cnc2cccc(N3CCc4c(cc(Cn5ccnc5C)cc4-c4cn(C)nc4C(F)(F)F)C3=O)c2c1` gave an EC50 of 4.4 µM (Pfeiffer; cell growth; 120 h).
`CCCN1CCN(c2ccc3[nH]c(-c4ccc5[nH]c(-c6ccc(OCC)c(OCC)c6)nc5c4)nc3c2)CC1` gave a growth percent of 20.9% (SR; SRB; 10 µM, 48 h).
`Cc1nc(N(Cc2ccccc2)c2ccc3c(c2)/C(=C/c2ccccc2)C(=O)N3Cc2ccccc2)c2ccccc2n1` (mixture of isomers): “wound healing rate” 14.1% (LLC; 2.0 µM, 24 h).
`CC(C)(C)c1nc(-c2cccc(NS(=O)(=O)c3c(F)cccc3F)c2F)c(-c2ccnc(N)n2)s1` has an IC75 of 0.731 µM (SK-MEL-239 C4 (p61 BRAF V600E); ERK phosphorylation, Western blot; 1 h).
Under “T cell proliferation”, `Nc1ncnc2c1ncn2[C@@H]1O[C@H](CO)[C@@H](O)[C@H]1O` is recorded as 41 a.u. and 54.1 a.u. and 40.3 a.u. (activated human T cells; 10 µM; higher = more proliferation).
